Assay results pooled from the literature.
Each numbered part is a random draw from the data of one study; scales do not carry over between parts.
Sequence of UniProt Q9C0B0 (30-357, looked up): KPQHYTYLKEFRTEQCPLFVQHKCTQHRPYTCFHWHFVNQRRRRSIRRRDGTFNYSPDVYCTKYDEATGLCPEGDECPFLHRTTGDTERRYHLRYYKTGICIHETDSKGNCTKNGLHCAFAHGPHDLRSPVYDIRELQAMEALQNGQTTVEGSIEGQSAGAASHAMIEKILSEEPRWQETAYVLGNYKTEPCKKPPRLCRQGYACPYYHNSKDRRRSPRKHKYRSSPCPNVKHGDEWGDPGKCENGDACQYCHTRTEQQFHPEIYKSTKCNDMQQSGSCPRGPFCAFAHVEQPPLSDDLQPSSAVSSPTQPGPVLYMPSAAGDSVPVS

Set 1
Target: Ras GTPase-activating protein-binding protein 1, C-terminal RGG region (G3BP1, Homo sapiens, UniProt Q13283)
Sequence of UniProt Q13283 (whole entry, looked up): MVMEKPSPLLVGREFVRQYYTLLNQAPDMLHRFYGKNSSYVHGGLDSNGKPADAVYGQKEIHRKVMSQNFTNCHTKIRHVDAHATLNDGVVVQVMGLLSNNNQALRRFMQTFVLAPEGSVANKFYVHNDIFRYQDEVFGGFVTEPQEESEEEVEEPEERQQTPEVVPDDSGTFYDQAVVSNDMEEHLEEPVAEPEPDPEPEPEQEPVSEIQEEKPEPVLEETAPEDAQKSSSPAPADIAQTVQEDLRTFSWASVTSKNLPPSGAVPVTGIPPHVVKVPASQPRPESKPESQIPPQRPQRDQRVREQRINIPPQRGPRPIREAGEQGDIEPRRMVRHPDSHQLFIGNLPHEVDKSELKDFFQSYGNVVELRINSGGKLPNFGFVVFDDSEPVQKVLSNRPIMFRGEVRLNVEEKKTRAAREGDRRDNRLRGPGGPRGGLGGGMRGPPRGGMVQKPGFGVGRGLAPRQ
Method: RNA Bind-n-Seq
Form: RNA
Matrix: in vitro
Concentration: 1 µM
Setting: whole 134-nt RNA, ends assumed
Added: 150 mM KCl
Relative to: input library
Reading: higher = stronger binding
Shared flanks, not repeated: GGGAGUUCUACAGUCCGACGAUC … UGGAAUUCUCGGGUGUCAAGG
Strand | log2 enrichment
UCCUGUGCUACACAUCGUAUGUACCGAAUCGGGGUUUUUGGGGAAAAAGGGGAAAGGGGAAAGUAUUAUGUUACGCCGUUCGGAUCUGCA | 2.73
AGUCCUGUGCUACACAUCGUAUGUACCGAAUCGGAAAAAGGAAAAAGGAAAAAAAGGAAAGUAUUAUGUUACGCCGUUCGGAUCUGCACU | -2.06
UGGCCCUCGUGGCAUGCGGGGAGGAAGAGGUGGCCUCAUGGAUCGUGGUGGUCCCGGUGGAAUGUUCAGAGGUGGCCGUGGUGGAGACAG | 1.96
ACCAUGCAGGUGGGCAUCUUUGGGAAGUGGGGCAAGGGGGGGAUAGGGAGGGGGGUAACACUUUUGGAACAGGUGGUCCCAGGUCGUUUC | 2.55
UGUAACCUGGGGAUUCUCUCAACUCUCUUGUCCCACACAGACUUCUAUGAGGAAAUCCAGGAGUUUGUGAAAGAUGUCUUUUCACCUAUA | -0.266
UCCUGUGCUACACAUCGUAUGUACCGAAUCGGAAAAAAGGGAAAAAAGGGGAAAAAAGGAAAGUAUUAUGUUACGCCGUUCGGAUCUGCA | -1.63
ACCAUGCAGGUGGGCAUCUUUGGGAAGUGGGGCAAGGGGGGGAUAGGGAGGGGGGUAACACUUUGGGAACAGGUGGUCCCAGGUCAAAUC | -0.77
ACCAUGCAGGUGGGCAUCUUUGGGAAGUGGGGCCAGGGGGGGAUAGGGAGGGGGGUAACACUUUGGGAACAGGUGGUCCCAGGUCGUUUC | -1.28
UCCUGUGCUACACAUCGUAUGUACCGAAUCGGGGUUUUUUGGGUUUUUUGGUUUUUUGGGAAAGUAUUAUGUUACGCCGUUCGGAUCUGC | -0.755

Set 2
Target: Centromere-binding protein 1, full length, N-terminal tag (CBF1, Saccharomyces cerevisiae, UniProt P17106, residues 1-351)
Sequence of UniProt P17106 (whole entry, looked up): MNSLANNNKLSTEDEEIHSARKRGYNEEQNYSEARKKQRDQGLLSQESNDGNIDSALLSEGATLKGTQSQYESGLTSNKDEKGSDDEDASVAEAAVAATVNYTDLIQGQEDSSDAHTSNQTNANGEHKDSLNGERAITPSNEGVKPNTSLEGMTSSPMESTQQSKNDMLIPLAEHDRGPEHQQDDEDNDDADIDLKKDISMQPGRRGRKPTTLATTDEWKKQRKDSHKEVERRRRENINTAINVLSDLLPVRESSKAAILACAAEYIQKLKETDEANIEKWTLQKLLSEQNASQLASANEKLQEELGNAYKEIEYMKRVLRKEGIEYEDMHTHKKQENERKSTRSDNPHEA
Method: protein-binding microarray
Form: double-stranded DNA, one strand shown
Matrix: in vitro
Concentration: 0.8 µM
Setting: whole 60-bp probe, no competitor
Reading: higher = stronger binding
Shared flanks, not repeated: … GTCTTGATTCGCTTGACGCTGCTG
Strand | fluorescence intensity [a.u.]
GAATGAAACAAATATTTCGTGACAGAATACTAATAG | 558
GAATGCTTGTGTTTACACGTTCGCGGTCAATGCTAG | 553
GAATAGCGAGAATATGGTGTGAACAGTAGCACTTAG | 515
GAACGCTGTTACCTCCAGGTGATTGCTGTCTTTTAG | 504
GAAAGACACCGCCACCACCTGAGCCTCCATGCGTAG | 494
GAAGGCGCCAAACAAAACGTGGACTGTGACAAATAG | 580
GAAAGATATTTTTTCTTCGTGATTTTCTAGTCCTAG | 525
GAATAAAACATAAACGTGATGCTTTTACCACGTTAG | 1750
CTATACGGTTGAAATCACGTGTCGTTAGGATAATTC | 9540
GAATACCTAGTAAATCACGATGAGAATTATATATAG | 577
GAATGAAAATTACTGCACGTCATGTGGGAGGAGTAG | 984
CTATTCCATAACACAAACGTGACGTGCAAATAATTC | 3110
CTATTTGTAATTATAATCATGATGATAACGCTATTC | 532
CTATCTCCAATTTTTGACATCAGCGATTATGGCTTC | 548
GAATTCTCTTTTGGTGGTGCGCTTTTGCATTTTTAG | 508
GAATACAATTTTGCTCACGTTTTAAGCCGCCCATAG | 893
GAAAAAAAATGCAATCACGTTTTCACATTTTTTTAG | 2400
CTAATAACTCAACAAAACGTGACAAAAAATCACTTC | 2780
GAAGCATTTTTGGGGCTGATGTTTTAGTTCGAATAG | 504

Set 3
Target: Histone acetyltransferase KAT6A, both winged helices, GST fusion (KAT6A, Homo sapiens, UniProt Q92794, residues 1-181)
Method: protein binding microarray
Form: double-stranded DNA, one strand shown
Matrix: in vitro
Concentration: not given
Setting: 8-mer, flanks averaged, mean of 2 arrays, mostly near background
Relative to: not given
Reading: higher = stronger binding
Construct (chain): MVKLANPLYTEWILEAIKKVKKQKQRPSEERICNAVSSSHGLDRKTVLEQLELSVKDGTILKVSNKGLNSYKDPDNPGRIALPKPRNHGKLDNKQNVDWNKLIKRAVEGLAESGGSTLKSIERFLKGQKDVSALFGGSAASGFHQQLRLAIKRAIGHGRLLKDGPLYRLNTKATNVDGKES
Strand | E-score
CGCGCTCC | 0.321
CACTACTG | -0.14
TTTACAAA | -0.0221
CGTAGAGA | 1.5e-05
TCGGGAGA | -0.00248
ATCCGCGG | 0.319
TAGGAAGA | -0.252
ACCACCCT | -0.209
ATGAATAG | -0.0724
CTAGAGAC | -0.0619
AGGTTACT | -0.144
AGAATGAT | -0.114
ACGGACGA | 0.227
ATATCAAT | -0.00071
GACTGAGA | -0.17
AGAGACAT | -0.206
CTTACTTC | 0.0308
ACCTATGC | 0.0535
AACCATCG | -0.0271
ATGGCATA | -0.133
GACATCCA | -0.127

Set 4
Target: RNA binding protein fox-1 homolog 2, RRM domain, GST-SBP tag (RBFOX2, Homo sapiens, UniProt O43251-10, residues 100-194)
Method: RNA Bind-n-Seq
Form: RNA
Matrix: in vitro
Concentration: 365 nM
Setting: natural RNA segment, single round, ends assumed
Relative to: no-protein control
Reading: higher = stronger binding
Shared flanks, not repeated: GGGAGUUCUACAGUCCGACGAUC … UGGAAUUCUCGGGUGCCAA
Residues (chain): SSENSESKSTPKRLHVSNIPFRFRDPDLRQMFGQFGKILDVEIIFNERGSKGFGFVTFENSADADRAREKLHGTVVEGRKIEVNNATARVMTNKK
Strand | RBNS enrichment (R)
AGUAGUAGUAGUAGUAGUAGUAGUUCCAUGUAGGGGCAGGAUCCUUUGGAAAAGUACCGUAUGUUCCUAGACCCCUUCCUUCCUUCCUUCCUUCCUUCCUUCUUUCCUUC | 0.864
CAUGGGCUCUCCGUGGUGAAGAACAAAGGGUACCCCAAUGGCCUCUCACCAUCACUGUCCUCCAGGGGCCUCGGACUUUUAGUACUCAAGGCAUGAUGUGGCAGUAGCUG | 1.78
AUCUGCACUUGCUCAUAGGCCGGUUCCUUUUAUUUGAAUAAUAAAUAAAGCUAGUUCUAUUGAAAUGAACCCUUCGGCACCCUCUGCUCUUUAUCACACAGUUGUUGGGU | 0.671
GACAAUGGCCACAAGUUUGGCGUCCUUCAAUUUAAUUCUUUAAAGAAGUGCUGGGAAGAAAAAGCUAUGUGGUUUCUACCAUUUUAGCAGGAUAAAGAGGAUAACUCCUU | 0.436
CCAGUGCAUCAUCAGAAGCCUUCCUCGUGACCAUAACUCUGUGUCUGCAGAUAUGUGUUCCCGUGUAAGCCAGUUUUCCCCUUUUACUCAGACUGAUUUCACCUAGAUUG | 0.314
CUGUUACCUAGAGGGUCUCACCUCCCCACUCUUCACAGCAAACCUGAGCAGCGCGUCCUAAGCACCUCCCGCUCCGGUGACCCCAUCCUUGCACACCUGACUCUGUCACU | 0.899
ACCAGAGCCUCCCCGCUGCUCCUCCUGCUUCACGGACUCAUUCUCUCUCCACCUCCACCCCACCAGAGAGUAGCGAUUGCUUUUUAGUCUAUUUUGUUGUCAAUACAAUU | 0.594
GAAUUUUACGAUUCCCAAACCAUGCAGGGGCUGAGCCUUCCUUAUGAUGACUUUGUUCUCCCUCCCACUGGGGGAAUCCUCCCUAUGCCUUAAAACUGCCGAGCCCCACU | 0.37

Mixed results
Strand | target | assay | system | conditions | scale | endpoint | value
GGGAGUUCUACAGUCCGACGAUCGUUGGGCCAUGACCCCUACCGAUCCGGUCAUGAUGCUUACAGGUCCGGACAAGACCCUUACCGAUCCGGCCAUGAUCCCUACAGACUAACUCCUGAUCCCUACCGGAUGUCACCCCGACCCAACAGAGGAUUGAGCAUCA | RING finger protein unkempt homolog, zinc fingers 1-6, SBP tag (UNK, Homo sapiens, UniProt Q9C0B0, residues 30-357) | RNA Bind-n-Seq | RNA, in vitro | 100 nM, RNA with constant flanks, ends assumed | relative to: input RNA pool, higher = stronger binding | bound/input enrichment | 0.451 ratio
